Measurements of several laboratories.
Lines come from different studies, so protocols differ. Values joined by “and” are separate records of one study, mostly repeats; a detail may differ. Numbers after ± are the reported error.
B1: colicin E1 fragment 1–81; sequence looked up; chain METAVAYYKDGVPYDDKGQVIITLLNGTPDGSGSGGGGGKGGSKSESSAAIHATAKWSTAQLKKTQAEQAARAKAAAEAQA

Molecule	test	test system	conditions	how to read	quantity	value
COc1cccc2c1C(=O)c1c(O)c3c(c(O)c1C2=O)C[C@@](O)(C(=O)CO)C[C@@H]3O[C@H]1C[C@H](NC(=O)CCC(=O)N[C@H]2CSSC[C@@H](C(=O)O)NC(=O)[C@H](C(C)C)NC(=O)[C@H](CO)NC(=O)CNC(=O)CNC(=O)[C@H](CCCNC(=N)N)NC(=O)[C@@H]3CCCN3C2=O)[C@H](O)[C@H](C)O1	shake flask	n-octanol/PBS	2.0 µM, pH 7.4	–	distribution coefficient	4.3
CSCC[C@H](NC(=O)[C@H](CC(C)C)NC(=O)[C@H](Cc1cnc[nH]1)NC(=O)CNC(=O)[C@@H](NC(=O)[C@H](C)NC(=O)[C@H](Cc1c[nH]c2ccccc12)NC(=O)[C@H](CCC(N)=O)NC(=O)c1ccc(NC(=O)CN2CCN(CC(=O)O)CCN(CC(=O)O)CCN(CC(=O)O)CC2)cc1)C(C)C)C(N)=O	–	ICR SCID mouse (PC-3 tumour), urine and bladder contents	intravenous, 185 kBq, 4 h	–	excreted dose	81.4 ± 2.85%
CCN1C(=CC=CC=CC2=[N+](CCCCCC(=O)NCCCC[C@H](NC(=O)CN3CCN(CC(=O)O)CCN(CC(=O)O)CCN(CC(=O)O)CC3)C(=O)NCC(=O)NCC(=O)N[C@@H](Cc3ccc(O)cc3)C(=O)NCC(=O)N[C@H]3CSSC[C@@H]4NC(=O)CNC(=O)[C@H](C)NC(=O)[C@H](CC(C)C)NC(=O)[C@@H]5CSSC[C@@H](C(=O)NCC(N)=O)NC(=O)[C@H](Cc6ccccc6)NC(=O)CNC(=O)[C@H](CC(N)=O)NC(=O)[C@@H]6CCCN6C(=O)CNC(=O)[C@H](CSSC[C@H](NC(=O)[C@H](CO)NC(=O)[C@H]([C@@H](C)O)NC(=O)[C@@H]6CCCN6C(=O)[C@H](C)NC(=O)[C@H](Cc6c[nH]c7ccccc67)NC(=O)[C@H](CC(=O)O)NC(=O)CNC(=O)[C@H](CCCNC(=N)N)NC(=O)CNC(=O)[C@H](CCC(N)=O)NC(=O)[C@@H]6CCCN6C3=O)C(=O)N[C@@H](CO)C(=O)N[C@@H](CCC(N)=O)C(=O)N[C@@H](CC(=O)O)C(=O)N[C@@H](CO)C(=O)N[C@@H](CC(=O)O)C(=O)N5)NC(=O)[C@H](C(C)C)NC4=O)c3ccc4c(S(=O)(=O)[O-])cc(S(=O)(=O)O)cc4c3C2(C)C)C(C)(C)c2c1ccc1c(S(=O)(=O)O)cc(S(=O)(=O)O)cc21 (single isomer, unassigned) [copper-64 labelled]	microPET	female athymic nude mouse, U-87 MG xenograft, tumour	intravenous, 100 µCi, 4 h	–	tumour uptake	4.52 ± 0.31 %ID/g
B1 (colicin E1 fragment 1–81)	far-UV CD	peptide, 50 mM sodium phosphate	–	–	helical content	14 ± 2%
peginesatide	ELISA	healthy adults, plasma	intravenous bolus, 0.1 mg/kg	–	Cmax	3330 ng/mL
COc1cccc2c1C(=O)c1c(O)c3c(c(O)c1C2=O)C[C@@](O)(C(=O)CO)C[C@@H]3O[C@H]1C[C@H](NC(=O)[C@@H]2CCCN2C(=O)CNC(=O)[C@H](CC(C)C)NC(=O)[C@H](C)NC(=O)CP(=O)(O)O)[C@H](O)[C@H](C)O1	–	mouse, E0771 tumour-bearing, kidney	intravenous, 92 µmol/kg	–	AUC	388 µM·h
CN[C@@](C)(C[18F])C(=O)O	–	SCID mouse U87 xenograft, lung	60 min, post injection	–	tissue uptake	2.5 ± 0.4 %ID/g
CC(=O)N(O)CCCCCNC(=O)CCC(=O)N(O)CCCCCNC(=O)CCC(=O)N(O)CCCCCNC(=S)Nc1ccc(NC(=S)NCCOCCOCCOCCOCCC(=O)N[C@@H](CCC(=O)NCCOCCOCCOCCOCCC(=O)NCCCC[C@@H]2NC(=O)[C@@H](Cc3ccccc3)NC(=O)[C@H](CC(=O)O)NC(=O)CNC(=O)[C@H](CCCNC(=N)N)NC2=O)C(=O)NCCOCCOCCOCCOCCC(=O)NCCCC[C@@H]2NC(=O)[C@@H](Cc3ccccc3)NC(=O)[C@H](CC(=O)O)NC(=O)CNC(=O)[C@H](CCCNC(=N)N)NC2=O)cc1 [zirconium-89 labelled]	–	athymic nude mice female tumour-bearing, spleen	intravenous, 100 µCi, 4 h	–	tissue uptake	3.76 ± 0.31 %ID/g
N=C(N)NCCC[C@@H]1NC(=O)[C@H](CCCCNC(=O)[C@H](CC(=O)O)NC(=O)[C@H](CC(=O)O)NC(=O)[C@H](CC(=O)O)NC(=O)CC[C@H](NC(=O)CCOCCOCCOCCOCCNC(=O)c2ccc(NN)nc2)C(=O)N[C@@H](CC(=O)O)C(=O)N[C@@H](CC(=O)O)C(=O)N[C@@H](CC(=O)O)C(=O)NCCCC[C@@H]2NC(=O)[C@@H](Cc3ccccc3)NC(=O)[C@H](CC(=O)O)NC(=O)CNC(=O)[C@H](CCCNC(=N)N)NC2=O)NC(=O)[C@@H](Cc2ccccc2)NC(=O)[C@H](CC(=O)O)NC(=O)CNC1=O [technetium-99m labelled]	γ-counting	female athymic nude mice, U-87 MG xenograft, blood	intravenous, 1 h	–	tissue uptake	0.49 ± 0.08 %ID/g
CC(C)C[C@@H]1NC(=O)[C@@H]2CSSC[C@@H](C(=O)NCC(N)=O)NC(=O)[C@H](Cc3ccccc3)NC(=O)CNC(=O)[C@H](CC(N)=O)NC(=O)[C@@H]3CCCN3C(=O)CNC(=O)[C@@H]3CSSC[C@H](NC(=O)[C@H]([C@@H](C)O)NC(=O)[C@H](CC(C)C)NC(=O)[C@@H]4CCCN4C(=O)[C@@H]4CCCN4C(=O)[C@H](CC(N)=O)NC(=O)[C@H](CC(=O)O)NC(=O)CNC(=O)[C@H](CCCNC(=N)N)NC(=O)[C@@H]4CCCN4C(=O)[C@H](CCCNC(=N)N)NC(=O)[C@@H]4CCCN4C(=O)[C@@H](NC(=O)CNC(=O)CN4CCN(CC(=O)O)CCN(CC(=O)O)CCN(CC(=O)O)CC4)CSSC[C@H](NC(=O)CNC(=O)[C@H](C)NC1=O)C(=O)N[C@@H](C(C)C)C(=O)N3)C(=O)N[C@@H](CO)C(=O)N[C@@H](CCC(N)=O)C(=O)N[C@@H](CC(=O)O)C(=O)N[C@@H](CO)C(=O)N[C@@H](CC(=O)O)C(=O)N2 [copper-64 labelled]	PET/CT	transgenic mouse lung tumour, lung tumour	intravenous, 60 min	–	tumour uptake	1.66 %ID/g and 2.03 %ID/g and 1.39 %ID/g and 1.65 %ID/g and 2.12 %ID/g
melittin	membrane partitioning, CD van't Hoff analysis	POPC/POPG LUVs 90:10%	concentration not given, 5 to 60 °C	–	heat capacity change	-0.47 kcal/mol/K
CCCCCCCCCCCCCCCC(=O)N[C@H](CSC1CC(=O)N(CCC(=O)NCCOCCOCCOCCOCCOCCOCCOCCOCCOCCOCCOCCOCCOCCOCCOCCOCCOCCOCCOCCOCCOCCOCCOCCOCCC(=O)NC(COCCC(=O)NCCOCCOCCOCCOCCC(=O)NCCCC[C@@H](NC(=O)CNC(=O)[C@@H](CC(C)C)NC(=O)[C@@H](CCC(=O)O)NC(=O)[C@H]2CSSC[C@@H](NC(=O)[C@H]3CCCN3C(=O)[C@@H](Cc3c[nH]cn3)NC(C)=O)C(=O)N[C@H](CC(=O)O)C(=O)N[C@H](Cc3ccc(O)cc3)C(=O)N3CCC[C@@H]3C(=O)N[C@H](CCC(=O)O)C(=O)N[C@H](Cc3c[nH]c4ccccc34)C(=O)N[C@H](CCC(N)=O)C(=O)N[C@H](Cc3c[nH]c4ccccc34)C(=O)N[C@H](CC(C)C)C(=O)N2)C(N)=O)(COCCC(=O)NCCOCCOCCOCCOCCC(=O)NCCCC[C@@H](NC(=O)CNC(=O)[C@@H](CC(C)C)NC(=O)[C@@H](CCC(=O)O)NC(=O)[C@H]2CSSC[C@@H](NC(=O)[C@H]3CCCN3C(=O)[C@@H](Cc3c[nH]cn3)NC(C)=O)C(=O)N[C@H](CC(=O)O)C(=O)N[C@H](Cc3ccc(O)cc3)C(=O)N3CCC[C@@H]3C(=O)N[C@H](CCC(=O)O)C(=O)N[C@H](Cc3c[nH]c4ccccc34)C(=O)N[C@H](CCC(N)=O)C(=O)N[C@H](Cc3c[nH]c4ccccc34)C(=O)N[C@H](CC(C)C)C(=O)N2)C(N)=O)COCCC(=O)NCCOCCOCCOCCOCCC(=O)NCCCC[C@@H](NC(=O)CNC(=O)[C@@H](CC(C)C)NC(=O)[C@@H](CCC(=O)O)NC(=O)[C@H]2CSSC[C@@H](NC(=O)[C@H]3CCCN3C(=O)[C@@H](Cc3c[nH]cn3)NC(C)=O)C(=O)N[C@H](CC(=O)O)C(=O)N[C@H](Cc3ccc(O)cc3)C(=O)N3CCC[C@@H]3C(=O)N[C@H](CCC(=O)O)C(=O)N[C@H](Cc3c[nH]c4ccccc34)C(=O)N[C@H](CCC(N)=O)C(=O)N[C@H](Cc3c[nH]c4ccccc34)C(=O)N[C@H](CC(C)C)C(=O)N2)C(N)=O)C1=O)C(=O)O (stereo partly shown)	–	Sprague Dawley rat	subcutaneous vs intravenous, 1.2 mg/kg	–	bioavailability	103%
COc1cccc2c1C(=O)c1c(O)c3c(c(O)c1C2=O)C[C@@](O)(C(=O)CO)C[C@@H]3O[C@H]1C[C@H](NC(=O)[C@H](CC(C)C)NC(=O)[C@H](C)NC(=O)[C@H](CC(C)C)NC(=O)CCNC(=O)CCC(=O)O)[C@H](O)[C@H](C)O1	–	mouse, E0771 tumour-bearing, heart	intravenous, 92 µmol/kg	–	Tmax	5 min
N=C(N)NCCC[C@@H]1NC(=O)[C@H](CCCCNC(=O)CCOCCOCCOCCOCCNC(=O)CC[C@H](NC(=O)c2ccc(NN)nc2)C(=O)NCCOCCOCCOCCOCCC(=O)NCCCC[C@@H]2NC(=O)[C@@H](Cc3ccccc3)NC(=O)[C@H](CC(=O)O)NC(=O)CNC(=O)[C@H](CCCNC(=N)N)NC2=O)NC(=O)[C@@H](Cc2ccccc2)NC(=O)[C@H](CC(=O)O)NC(=O)CNC1=O [technetium-99m labelled]	–	athymic nude mouse, U-87 MG xenograft	60 min	–	tumour uptake	8.3 ± 3.57 %ID/g
N=C(N)NCCC[C@@H]1NC(=O)[C@H](CCCCNC(=O)CNC(=O)CNC(=O)CNC(=O)CC[C@H](NC(=O)CCOCCOCCOCCOCCNC(=O)c2ccc(NN)nc2)C(=O)NCC(=O)NCC(=O)NCC(=O)NCCCC[C@@H]2NC(=O)[C@@H](Cc3ccccc3)NC(=O)[C@H](CC(=O)O)NC(=O)CNC(=O)[C@H](CCCNC(=N)N)NC2=O)NC(=O)[C@@H](Cc2ccccc2)NC(=O)[C@H](CC(=O)O)NC(=O)CNC1=O [technetium-99m labelled]	γ-counting	female athymic nude mice, U-87 MG xenograft, eyes	intravenous, 0.5 h	–	tissue uptake	2.04 ± 0.15 %ID/g
Cc1ccccc1NC(=O)Nc1ccc(CC(=O)N[C@@H](CCCCNC(=O)/C=C/c2cccnc2)C(=O)N[C@@H](CCCC(=O)O)C(=O)NC2(C(=O)NCCOCCOCCOCCOCC(=O)N[C@@H](CCCCNC(=S)Nc3ccc(C[C@H]4CN(CC(=O)O)CCN(CC(=O)O)CCN4CC(=O)O)cc3)C(N)=O)CCCCC2)cc1 [fluorine-18 labelled]	–	female C57BL/6 mice, B16-F10 tumour, tumour and blood	intravenous, 2 h	baseline: tumour over blood	tumour-to-blood ratio	5.1 ± 0.9

A few entries again:
Molecule	test	test system	conditions	how to read	quantity	value
CCCCCCCCCCCCCCCC(=O)N[C@H](CSC1CC(=O)N(CCC(=O)NCCOCCOCCOCCOCCOCCOCCOCCOCCOCCOCCOCCOCCOCCOCCOCCOCCOCCOCCOCCOCCOCCOCCOCCOCCC(=O)NC(COCCC(=O)NCCOCCOCCOCCOCCC(=O)NCCCC[C@@H](NC(=O)CNC(=O)[C@@H](CC(C)C)NC(=O)[C@@H](CCC(=O)O)NC(=O)[C@H]2CSSC[C@@H](NC(=O)[C@H]3CCCN3C(=O)[C@@H](Cc3c[nH]cn3)NC(C)=O)C(=O)N[C@H](CC(=O)O)C(=O)N[C@H](Cc3ccc(O)cc3)C(=O)N3CCC[C@@H]3C(=O)N[C@H](CCC(=O)O)C(=O)N[C@H](Cc3c[nH]c4ccccc34)C(=O)N[C@H](CCC(N)=O)C(=O)N[C@H](Cc3c[nH]c4ccccc34)C(=O)N[C@H](CC(C)C)C(=O)N2)C(N)=O)(COCCC(=O)NCCOCCOCCOCCOCCC(=O)NCCCC[C@@H](NC(=O)CNC(=O)[C@@H](CC(C)C)NC(=O)[C@@H](CCC(=O)O)NC(=O)[C@H]2CSSC[C@@H](NC(=O)[C@H]3CCCN3C(=O)[C@@H](Cc3c[nH]cn3)NC(C)=O)C(=O)N[C@H](CC(=O)O)C(=O)N[C@H](Cc3ccc(O)cc3)C(=O)N3CCC[C@@H]3C(=O)N[C@H](CCC(=O)O)C(=O)N[C@H](Cc3c[nH]c4ccccc34)C(=O)N[C@H](CCC(N)=O)C(=O)N[C@H](Cc3c[nH]c4ccccc34)C(=O)N[C@H](CC(C)C)C(=O)N2)C(N)=O)COCCC(=O)NCCOCCOCCOCCOCCC(=O)NCCCC[C@@H](NC(=O)CNC(=O)[C@@H](CC(C)C)NC(=O)[C@@H](CCC(=O)O)NC(=O)[C@H]2CSSC[C@@H](NC(=O)[C@H]3CCCN3C(=O)[C@@H](Cc3c[nH]cn3)NC(C)=O)C(=O)N[C@H](CC(=O)O)C(=O)N[C@H](Cc3ccc(O)cc3)C(=O)N3CCC[C@@H]3C(=O)N[C@H](CCC(=O)O)C(=O)N[C@H](Cc3c[nH]c4ccccc34)C(=O)N[C@H](CCC(N)=O)C(=O)N[C@H](Cc3c[nH]c4ccccc34)C(=O)N[C@H](CC(C)C)C(=O)N2)C(N)=O)C1=O)C(=O)O (stereo partly shown)	–	Sprague Dawley rat	subcutaneous vs intravenous, 1.2 mg/kg	–	bioavailability	103%
COc1cccc2c1C(=O)c1c(O)c3c(c(O)c1C2=O)C[C@@](O)(C(=O)CO)C[C@@H]3O[C@H]1C[C@H](NC(=O)[C@H](CC(C)C)NC(=O)[C@H](C)NC(=O)[C@H](CC(C)C)NC(=O)CCNC(=O)CCC(=O)O)[C@H](O)[C@H](C)O1	–	mouse, E0771 tumour-bearing, heart	intravenous, 92 µmol/kg	–	Tmax	5 min
